{"data": "Results from different studies", "target": "Glycogen synthase kinase-3 alpha (GSK3A, Homo sapiens, UniProt P49840)", "note": "Values joined by “and” are separate records of one study, mostly repeats; a detail may differ."}
{"Compound": "NC(=O)[C@@H](O)C[C@H]1CCc2sc3ncnc(O[C@H]4CC[C@H](N5CCOCC5)CC4)c3c21", "test": "enzyme activity, inhibitor", "conditions": "10 µM", "measurement": "inhibition", "result": "11%"}
{"Compound": "Cc1ccc(-c2c(/C=C(\\C#N)C(=O)NC(C)C)n(CCCO)c3ncnc(N)c23)cc1", "test": "cell-free assay, competition with immobilised ligand", "conditions": "1 µM", "measurement": "remaining binding", "result": "100%"}
{"Compound": "Cc1cnc2nc1Nc1cccc(c1)COC/C=C/COCc1cc(ccc1OCCN1CCOCC1)N2", "test": "binding", "conditions": "0.1 µM", "measurement": "remaining binding", "result": "83%"}
{"Compound": "CC(C)=CC1OC(C)(C)C2C=C3C(=O)C(Cl)=CC(O)C3C3C(O)C4OC4C(=O)C132 (centres unmarked)", "test": "cell-free assay, competition with immobilised ligand", "conditions": "10 µM", "measurement": "remaining binding", "result": "98%"}
{"Compound": "CCN1CCN(Cc2ccc(C(=O)Nc3ccc(C)c(NCc4cnc5[nH]ccc5c4OC)c3)cc2C(F)(F)F)CC1", "test": "binding, competition with immobilised ligand", "conditions": "1 µM", "measurement": "remaining binding", "result": "100%"}
{"Compound": "C=CC(=O)Nc1cccc(-c2cnc3[nH]cc(C(=O)NC(C)(C)C)c3n2)c1", "test": "kinase activity", "conditions": "0.1 µM", "measurement": "inhibition", "result": "77% and 79%"}
{"Compound": "CN1CCN(Cc2ccc(-c3ccc(CO[C@H]4CCC[C@@H]4NC(=O)c4cc(-c5cnn(C)c5)cnc4N)cc3)cc2)CC1", "test": "enzyme activity, inhibitor", "conditions": "0.1 µM", "measurement": "inhibition", "result": "2%"}
{"Compound": "CNC(=O)C1CCN(c2cc(C)c(F)cc2NC(=O)c2ccc(-c3cc(O)ccc3C)c(C)c2)CC1", "test": "binding, competition with immobilised ligand", "conditions": "1 µM", "measurement": "remaining binding", "result": "95%"}
{"Compound": "C=CC(=O)N1Cc2nc(-c3cc(-c4cc(Cl)cnc4Cl)c(F)cc3F)n(-c3ccncn3)c2C1", "test": "cell-free assay, inhibitor", "conditions": "1 µM", "measurement": "inhibition", "result": "5.5%"}
{"Compound": "COc1cc(Nc2nccc(-c3cnn4nc(OC)ccc34)n2)cc(C(F)(F)F)c1", "test": "binding, competition with immobilised ligand", "conditions": "1 µM", "measurement": "remaining binding", "result": "100%"}
{"Compound": "CCn1cc(C(=O)O)c(=O)c2c(N)c(F)c(NC3CCCCC3)cc21", "test": "kinase activity", "conditions": "0.1 µM, added: ATP at Km", "measurement": "inhibition", "result": "93%"}
{"Compound": "CNC1C[S+]2CC[S+]3CC[S+](C1)[Ru-4]321([N]=C=S)[n]2c3ccc(OC)cc3c3c4c(c5cc(F)c[n+]1c5c32)C(=O)NC4=O (centres unmarked)", "test": "KinomeScan", "conditions": "0.1 µM", "how to read": "relative to: untreated", "measurement": "remaining binding", "result": "88%"}
{"Compound": "Nc1ncc2c(n1)-c1c([nH]c3ccc(C4=CCOCC4)cc13)CCC2", "test": "binding, competition with immobilised ligand", "conditions": "1 µM", "measurement": "remaining binding", "result": "100%"}
{"Compound": "CS(=O)(=O)Nc1cccc(-c2csc3cnc(Nc4ccc(N5CCN(CCCCCOc6cccc7c6C(=O)N(C6CCC(=O)NC6=O)C7=O)CC5)cc4)nc23)c1 (centres unmarked)", "test": "probe labelling, inhibitor, KiNativ chemoproteomics", "system": "MOLT-4", "conditions": "1 µM", "measurement": "inhibition", "result": "-3.95%"}
{"Compound": "CNC(=O)C[C@H](Cc1ccc(C#N)cc1)NC(=O)c1cc(-c2ccc(CN[C@H](C)c3ccc(C)cc3)o2)ccc1Cl", "test": "enzyme activity, inhibitor", "conditions": "1 µM", "measurement": "activity vs control", "result": "100%"}
{"Compound": "Cc1cccc(O[C@H]2CCC[C@@H](C(C)CNCc3ccncc3)C2)c1 (relative stereo)", "test": "enzyme activity, inhibitor", "conditions": "1 µM", "measurement": "inhibition", "result": "-2%"}
{"Compound": "C=CC(=O)N1CCc2ccc(-n3c(=O)ccc4cnc5ccc(-c6cnn(C)c6)cc5c43)cc21", "test": "KINOMEscan", "conditions": "1 µM", "how to read": "relative to: DMSO control", "measurement": "remaining binding", "result": "100%"}
{"note": "Excerpt of the above:"}
{"Compound": "CS(=O)(=O)Nc1cccc(-c2csc3cnc(Nc4ccc(N5CCN(CCCCCOc6cccc7c6C(=O)N(C6CCC(=O)NC6=O)C7=O)CC5)cc4)nc23)c1 (centres unmarked)", "test": "probe labelling, inhibitor, KiNativ chemoproteomics", "system": "MOLT-4", "conditions": "1 µM", "measurement": "inhibition", "result": "-3.95%"}
{"Compound": "CNC(=O)C[C@H](Cc1ccc(C#N)cc1)NC(=O)c1cc(-c2ccc(CN[C@H](C)c3ccc(C)cc3)o2)ccc1Cl", "test": "enzyme activity, inhibitor", "conditions": "1 µM", "measurement": "activity vs control", "result": "100%"}
